Published values pooled from the literature.
Protocols differ between the studies behind these lines. ± gives the spread as reported.
Sctr: Sctr (Rattus norvegicus, UniProt P23811)
Sequence of UniProt P23811 (whole entry, looked up): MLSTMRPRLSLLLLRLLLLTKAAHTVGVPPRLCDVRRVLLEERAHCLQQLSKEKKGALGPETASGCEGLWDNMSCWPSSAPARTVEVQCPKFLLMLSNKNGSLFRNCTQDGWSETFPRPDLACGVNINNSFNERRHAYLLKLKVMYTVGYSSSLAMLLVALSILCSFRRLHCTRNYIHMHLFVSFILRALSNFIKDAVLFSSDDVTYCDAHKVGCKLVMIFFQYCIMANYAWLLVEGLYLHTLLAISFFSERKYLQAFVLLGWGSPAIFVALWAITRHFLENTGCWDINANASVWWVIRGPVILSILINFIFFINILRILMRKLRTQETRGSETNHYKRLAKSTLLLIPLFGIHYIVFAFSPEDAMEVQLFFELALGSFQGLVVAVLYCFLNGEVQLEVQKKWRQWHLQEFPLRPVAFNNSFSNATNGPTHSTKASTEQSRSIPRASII
Sequence of UniProt Q03111 (whole entry, looked up): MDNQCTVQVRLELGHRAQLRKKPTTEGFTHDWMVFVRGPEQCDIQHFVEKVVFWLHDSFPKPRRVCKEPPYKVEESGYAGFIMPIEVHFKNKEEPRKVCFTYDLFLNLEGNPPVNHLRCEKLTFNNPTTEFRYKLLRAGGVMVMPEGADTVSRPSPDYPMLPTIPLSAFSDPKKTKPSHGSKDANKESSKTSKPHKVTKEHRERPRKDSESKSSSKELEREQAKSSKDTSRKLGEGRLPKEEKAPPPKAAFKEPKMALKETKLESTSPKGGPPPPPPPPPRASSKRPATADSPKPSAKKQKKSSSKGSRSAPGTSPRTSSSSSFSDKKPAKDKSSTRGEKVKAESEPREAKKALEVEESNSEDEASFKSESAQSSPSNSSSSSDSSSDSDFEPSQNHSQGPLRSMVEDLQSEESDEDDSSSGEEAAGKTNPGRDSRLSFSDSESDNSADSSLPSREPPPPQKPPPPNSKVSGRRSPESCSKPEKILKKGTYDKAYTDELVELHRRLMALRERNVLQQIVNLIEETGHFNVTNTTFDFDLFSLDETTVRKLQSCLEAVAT
Sequence of UniProt O95838 (whole entry, looked up): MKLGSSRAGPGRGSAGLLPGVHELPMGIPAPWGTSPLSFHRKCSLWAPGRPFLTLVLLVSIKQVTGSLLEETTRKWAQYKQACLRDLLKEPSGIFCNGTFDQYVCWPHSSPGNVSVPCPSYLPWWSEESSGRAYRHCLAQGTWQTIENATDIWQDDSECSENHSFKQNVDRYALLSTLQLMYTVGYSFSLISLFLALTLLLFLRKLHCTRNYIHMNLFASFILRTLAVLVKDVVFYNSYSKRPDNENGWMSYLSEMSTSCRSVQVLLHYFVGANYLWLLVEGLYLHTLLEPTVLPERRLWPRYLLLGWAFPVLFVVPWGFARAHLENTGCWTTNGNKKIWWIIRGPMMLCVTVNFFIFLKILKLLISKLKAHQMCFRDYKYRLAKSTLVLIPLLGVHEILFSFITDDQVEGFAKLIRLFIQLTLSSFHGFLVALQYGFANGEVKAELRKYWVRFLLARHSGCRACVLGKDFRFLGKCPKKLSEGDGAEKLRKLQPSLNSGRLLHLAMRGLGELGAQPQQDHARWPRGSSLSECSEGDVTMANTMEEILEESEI
Sequence of UniProt P23576 (whole entry, looked up): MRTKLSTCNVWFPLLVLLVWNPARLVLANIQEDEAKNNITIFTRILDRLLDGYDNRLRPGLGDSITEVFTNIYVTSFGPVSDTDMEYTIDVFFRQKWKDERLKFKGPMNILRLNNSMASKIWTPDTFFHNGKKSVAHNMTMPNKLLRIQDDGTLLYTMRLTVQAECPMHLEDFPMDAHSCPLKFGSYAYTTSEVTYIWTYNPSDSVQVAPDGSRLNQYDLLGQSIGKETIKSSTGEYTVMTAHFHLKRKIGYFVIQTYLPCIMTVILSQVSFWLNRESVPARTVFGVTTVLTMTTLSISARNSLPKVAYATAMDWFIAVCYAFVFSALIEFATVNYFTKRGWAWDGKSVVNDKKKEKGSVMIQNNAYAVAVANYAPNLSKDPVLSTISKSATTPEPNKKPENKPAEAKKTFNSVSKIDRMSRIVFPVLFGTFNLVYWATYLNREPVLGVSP
Sequence of UniProt P30518 (whole entry, looked up): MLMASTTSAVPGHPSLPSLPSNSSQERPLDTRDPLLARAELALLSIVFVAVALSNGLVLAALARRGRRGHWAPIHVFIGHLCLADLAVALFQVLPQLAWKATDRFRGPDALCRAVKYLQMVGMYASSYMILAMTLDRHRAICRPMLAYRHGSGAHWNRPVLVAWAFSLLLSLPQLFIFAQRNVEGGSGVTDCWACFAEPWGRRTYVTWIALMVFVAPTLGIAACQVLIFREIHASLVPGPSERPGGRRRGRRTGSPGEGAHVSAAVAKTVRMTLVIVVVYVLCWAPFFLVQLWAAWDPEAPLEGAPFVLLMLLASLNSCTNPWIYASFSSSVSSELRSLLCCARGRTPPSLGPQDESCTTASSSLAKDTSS
Sequence of UniProt O15552 (whole entry, looked up): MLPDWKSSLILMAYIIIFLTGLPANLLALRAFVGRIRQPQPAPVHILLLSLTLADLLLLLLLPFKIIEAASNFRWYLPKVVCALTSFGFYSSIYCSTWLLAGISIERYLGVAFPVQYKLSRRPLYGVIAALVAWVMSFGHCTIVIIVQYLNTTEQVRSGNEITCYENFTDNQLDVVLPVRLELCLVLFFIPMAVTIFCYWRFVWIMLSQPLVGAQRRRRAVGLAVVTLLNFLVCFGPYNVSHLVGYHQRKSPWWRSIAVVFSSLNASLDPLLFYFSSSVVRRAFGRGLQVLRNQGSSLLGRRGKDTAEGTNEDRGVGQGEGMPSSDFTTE
Sequence of UniProt Q60755 (whole entry, looked up): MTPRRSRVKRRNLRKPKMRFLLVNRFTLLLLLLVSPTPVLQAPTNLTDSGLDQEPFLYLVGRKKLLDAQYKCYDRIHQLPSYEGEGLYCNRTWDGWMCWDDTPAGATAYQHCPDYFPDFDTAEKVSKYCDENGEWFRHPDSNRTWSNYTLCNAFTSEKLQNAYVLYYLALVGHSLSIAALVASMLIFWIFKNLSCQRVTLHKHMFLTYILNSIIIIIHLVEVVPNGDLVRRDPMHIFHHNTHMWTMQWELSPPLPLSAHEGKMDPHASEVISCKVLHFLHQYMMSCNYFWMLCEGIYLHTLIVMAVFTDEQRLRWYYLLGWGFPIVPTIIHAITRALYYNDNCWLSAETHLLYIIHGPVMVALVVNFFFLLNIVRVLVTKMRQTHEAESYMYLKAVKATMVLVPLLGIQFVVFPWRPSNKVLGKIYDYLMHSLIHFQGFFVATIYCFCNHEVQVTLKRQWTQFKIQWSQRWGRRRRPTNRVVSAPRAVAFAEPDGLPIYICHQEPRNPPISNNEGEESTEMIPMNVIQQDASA
Sequence of UniProt Q91WW4 (whole entry, looked up): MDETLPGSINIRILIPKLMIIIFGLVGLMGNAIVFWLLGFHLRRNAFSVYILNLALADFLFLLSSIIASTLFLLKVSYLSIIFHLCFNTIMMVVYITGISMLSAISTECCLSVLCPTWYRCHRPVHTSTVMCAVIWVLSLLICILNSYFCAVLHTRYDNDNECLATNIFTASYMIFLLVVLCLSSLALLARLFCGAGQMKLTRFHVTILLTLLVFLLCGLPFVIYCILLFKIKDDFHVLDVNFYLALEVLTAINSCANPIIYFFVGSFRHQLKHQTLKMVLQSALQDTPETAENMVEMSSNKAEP
Sequence of UniProt P63138 (whole entry, looked up): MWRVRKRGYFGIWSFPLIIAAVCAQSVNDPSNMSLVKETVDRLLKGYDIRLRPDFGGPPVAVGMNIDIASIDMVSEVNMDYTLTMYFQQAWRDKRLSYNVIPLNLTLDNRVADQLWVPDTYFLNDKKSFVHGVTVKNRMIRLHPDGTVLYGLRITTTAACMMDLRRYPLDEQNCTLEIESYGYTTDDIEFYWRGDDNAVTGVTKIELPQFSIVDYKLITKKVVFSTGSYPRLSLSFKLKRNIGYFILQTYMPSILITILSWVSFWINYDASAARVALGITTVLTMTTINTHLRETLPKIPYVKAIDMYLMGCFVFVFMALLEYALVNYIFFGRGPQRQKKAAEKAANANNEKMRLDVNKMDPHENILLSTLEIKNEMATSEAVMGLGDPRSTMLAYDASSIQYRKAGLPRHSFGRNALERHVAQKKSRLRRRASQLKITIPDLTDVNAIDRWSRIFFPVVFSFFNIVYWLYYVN
Sequence of UniProt P30550 (whole entry, looked up): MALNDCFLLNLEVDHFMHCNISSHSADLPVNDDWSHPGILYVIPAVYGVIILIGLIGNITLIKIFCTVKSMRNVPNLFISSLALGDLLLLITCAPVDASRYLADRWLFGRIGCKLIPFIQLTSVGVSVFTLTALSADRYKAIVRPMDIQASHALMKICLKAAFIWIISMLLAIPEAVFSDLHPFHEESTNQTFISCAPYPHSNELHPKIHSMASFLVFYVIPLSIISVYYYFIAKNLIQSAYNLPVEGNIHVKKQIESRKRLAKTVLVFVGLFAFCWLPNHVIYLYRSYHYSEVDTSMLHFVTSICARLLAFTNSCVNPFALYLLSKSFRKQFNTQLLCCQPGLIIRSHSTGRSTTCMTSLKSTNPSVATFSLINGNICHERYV

SMILES = NCCCC[C@H](NC(=O)[C@@H]1CCCN1C(=O)[C@@H]1CSSCCC(=O)N[C@@H](Cc2ccc(O)cc2)C(=O)N[C@@H](Cc2ccccc2)C(=O)N[C@@H](CCCC(N)=O)C(=O)N[C@@H](CC(N)=O)C(=O)N1)C(=O)NCC(N)=O; target = AVPR2 (Homo sapiens, UniProt P30518); test = calcium signal, agonist; EC50 = 0.26 nM
SMILES = CC(C)C[C@H](NC(=O)CNC(=O)[C@H](CCC(N)=O)NC(=O)[C@H](CC(C)C)NC(=O)[C@H](C)NC(=O)[C@H](CCCNC(=N)N)NC(=O)[C@H](CCC(N)=O)NC(=O)[C@H](CC(C)C)NC(=O)[C@H](CCCNC(=N)N)NC(=O)[C@H](C)NC(=O)[C@H](CO)NC(=O)[C@H](CC(=O)O)NC(=O)[C@H](CCC(N)=O)NC(=O)[C@H](CC(C)C)NC(=O)[C@H](CCCNC(=N)N)NC(=O)[C@H](CO)NC(=O)[C@H](CC(C)C)NC(=O)[C@H](CCC(=O)O)NC(=O)[C@H](CO)NC(=O)[C@@H](NC(=O)[C@H](Cc1ccccc1)NC(=O)[C@@H](NC(=O)CNC(=O)[C@H](CC(=O)O)NC(=O)[C@H](CO)NC(=O)[C@@H](N)Cc1c[nH]cn1)[C@@H](C)O)[C@@H](C)O)C(=O)N[C@H](C(N)=O)C(C)C; target = Sctr; test = cAMP production, agonist; system = CHO-SecR; conditions = 30 min, 37 °C, together with: 1 mM IBMX; EC50 = 11.7 ± 2.1 nM
SMILES = CCCC[C@H](NC(=O)[C@H](Cc1ccccc1)NC(=O)[C@H](Cc1c[nH]cn1)NC(=O)CCNC(=O)[C@@H](NC(=O)[C@H](C)NC(=O)[C@H](Cc1c[nH]c2ccccc12)NC(=O)[C@H](CC(N)=O)NC(=O)[C@@H](Cc1ccc(O)cc1)NC(=O)[C@@H](CO)NC(=O)[C@H](CO)NC(=O)[C@H](N)CO)C(C)C)C(N)=O; target = GRPR (Homo sapiens, UniProt P30550); test = inositol phosphate generation, agonist; system = BALB/3T3 transfected with human GRPR; conditions = 45 min, 37 °C; scale = baseline: 1 µM GRP; EC50 = 1.99 ± 0.09 nM
SMILES = CC(C)NC(=O)c1ccc2nc(-c3ccccc3)cn2c1; target = Protein ENL, YEATS domain (MLLT1, Homo sapiens, UniProt Q03111); conditions = cell-based; EC50 = 9000 nM
SMILES = CC(C)C[C@H](NC(=O)CNC(=O)[C@H](C)NC(=O)[C@H](CC(C)C)NC(=O)[C@H](CC(C)C)NC(=O)[C@H](CCCNC(=N)N)NC(=O)[C@H](CCC(N)=O)NC(=O)[C@H](CC(C)C)NC(=O)[C@H](CCCNC(=N)N)NC(=O)[C@H](C)NC(=O)[C@H](CO)NC(=O)[C@H](CC(=O)O)NC(=O)[C@H](CCC(N)=O)NC(=O)[C@H](CC(C)C)NC(=O)[C@H](CCCNC(=N)N)NC(=O)[C@H](CO)NC(=O)[C@H](CC(C)C)NC(=O)[C@H](CCC(=O)O)NC(=O)[C@H](CO)NC(=O)[C@@H](NC(=O)[C@H](Cc1ccccc1)NC(=O)[C@@H](NC(=O)CNC(=O)[C@H](CC(=O)O)NC(=O)[C@H](CO)NC(=O)[C@@H](N)Cc1c[nH]cn1)[C@@H](C)O)[C@@H](C)O)C(=O)N[C@H](C(N)=O)C(C)C; target = Sctr; test = cAMP production, agonist; system = CHO-SecR; conditions = 30 min, 37 °C, together with: 1 mM IBMX; EC50 = 0.2 ± 0.05 nM
SMILES = CC(C)CN(CC(C)C)C(=O)/C=C/C=C/c1ccc2c(c1)OCO2; target = Gabra2/Gabrb2 (Rattus norvegicus, UniProt P23576+P63138); test = GABA current potentiation, positive modulator, two-electrode voltage clamp; system = Xenopus oocytes expressing α2β2; conditions = together with: GABA EC3-7; EC50 = 13100 ± 9000 nM
SMILES = CC[C@H](C)[C@H](NC(=O)[C@@H]1CCCN1C(=O)CNC(=O)[C@H](Cc1ccccc1)NC(=O)[C@H](CC(N)=O)NC(=O)[C@H](CC(N)=O)NC(=O)[C@H](CO)NC(=O)[C@H](CO)NC(=O)[C@H](Cc1c[nH]cn1)NC(=O)[C@@H](NC(=O)[C@H](CC(C)C)NC(=O)[C@H](Cc1ccccc1)NC(=O)[C@H](CC(N)=O)NC(=O)[C@H](C)NC(=O)[C@H](CC(C)C)NC(=O)[C@H](CCCNC(=N)N)NC(=O)[C@H](CCC(N)=O)NC(=O)[C@@H](NC(=O)[C@H](C)NC(=O)[C@@H]1CSSC[C@H](NC(=O)[C@@H](N)CCCCN)C(=O)N[C@@H](CC(N)=O)C(=O)N[C@@H]([C@@H](C)O)C(=O)N[C@@H](C)C(=O)N[C@@H]([C@@H](C)O)C(=O)N1)[C@@H](C)O)C(C)C)C(=O)N[C@@H](CC(C)C)C(=O)N1CCC[C@H]1C(=O)N1CCC[C@H]1C(=O)N[C@H](C(=O)N[C@@H](CC(N)=O)C(=O)N[C@H](C(=O)NCC(=O)N[C@@H](CO)C(=O)N[C@@H](CC(N)=O)C(=O)N[C@H](C(=O)N[C@@H](Cc1ccc(O)cc1)C(N)=O)[C@@H](C)O)C(C)C)[C@@H](C)O; target = Calcitonin receptor (Calcr, Mus musculus, UniProt Q60755); test = cAMP production, agonist; system = COS-7 transfected with mouse CTR; conditions = 15 min, 37 °C, together with: 1 mM IBMX; EC50 = 7.76 nM
SMILES = CC[C@H](C)[C@H](NC(=O)[C@H](Cc1ccccc1)NC(=O)[C@H](CC(=O)O)NC(=O)[C@H](CCCNC(=N)N)NC(=O)[C@H](C)NC(=O)[C@H](C)NC(=O)[C@H](CC(C)C)NC(=O)[C@H](CC(N)=O)NC(=O)[C@H](CC(=O)O)NC(=O)[C@H](CC(C)C)NC(=O)[C@@H](NC(=O)[C@@H](NC(=O)[C@H](CC(N)=O)NC(=O)[C@H](CCSC)NC(=O)[C@H](CCC(=O)O)NC(=O)[C@H](CC(=O)O)NC(=O)[C@H](CO)NC(=O)[C@H](Cc1ccccc1)NC(=O)[C@H](CO)NC(=O)[C@H]1CCC[C@@H]1NC(=O)[C@H](CC(=O)O)NC(=O)[C@H](C)NC(=O)[C@@H](N)Cc1c[nH]cn1)[C@@H](C)O)[C@@H](C)CC)C(=O)N[C@@H](CC(N)=O)C(=O)N[C@@H](Cc1c[nH]c2ccccc12)C(=O)N[C@@H](CC(C)C)C(=O)N[C@H](C(=O)N[C@@H](CCC(N)=O)C(=O)N[C@H](C(=O)N[C@@H](CCCCN)C(=O)N[C@H](C(=O)N[C@H](C(=O)N[C@@H](CC(=O)O)C(N)=O)[C@@H](C)O)[C@@H](C)CC)[C@@H](C)O)[C@@H](C)CC; target = GLP2R (Homo sapiens, UniProt O95838); test = agonist; EC50 = 1.8 nM
SMILES = CC[C@H](C)[C@H](NC(=O)CN)C(=O)N[C@H](C(=O)N[C@@H](CC(N)=O)C(=O)N[C@H](C(=O)N[C@@H](CC(C)C)C(=O)N[C@@H](CCC(N)=O)C(=O)N[C@@H](CCCCN)C(=O)N[C@@H](Cc1ccc(O)cc1)C(=O)N[C@@H](Cc1ccc(O)cc1)C(=O)N[C@H]1CSSC[C@@H]2NC(=O)[C@H](CCCCN)NC(=O)[C@H](CCCNC(=N)N)NC(=O)CNC(=O)[C@H](CCCNC(=N)N)NC(=O)[C@H]([C@@H](C)O)NC(=O)[C@H](CO)NC(=O)[C@@H]3CSSC[C@H](NC(=O)[C@H](CCCNC(=N)N)NC(=O)CNC(=O)CNC(=O)[C@H](CCCNC(=N)N)NC(=O)[C@H](C(C)C)NC(=O)[C@H](CCCNC(=N)N)NC1=O)C(=O)N[C@@H](C)C(=O)N[C@@H](C(C)C)C(=O)N[C@@H](CC(C)C)C(=O)N[C@@H](CO)C(=O)N[C@@H](CSSC[C@@H](C(=O)N[C@@H](CCCNC(=N)N)C(=O)N[C@@H](CCCNC(=N)N)C(=O)N[C@@H](CCCCN)C(=O)N[C@@H](CCCCN)C(=O)O)NC2=O)C(=O)N[C@@H](CC(C)C)C(=O)N1CCC[C@H]1C(=O)N[C@@H](CCCCN)C(=O)N[C@@H](CCC(=O)O)C(=O)N[C@@H](CCC(=O)O)C(=O)N[C@@H](CCC(N)=O)C(=O)N[C@@H]([C@@H](C)CC)C(=O)NCC(=O)N[C@@H](CCCCN)C(=O)N3)[C@@H](C)O)[C@@H](C)CC; target = Mas-related G-protein coupled receptor member A2B (Mrgpra2b, Mus musculus, UniProt Q91WW4); test = calcium mobilisation, agonist, FLIPR; system = HEK293 expressing Gα15, transfected; EC50 = 16200 nM
SMILES = C/C=C\C(=O)O; target = FFAR2 (Homo sapiens, UniProt O15552); test = inositol phosphate, agonist, TR-FRET; EC50 = 55000 nM

Excerpt of the above:
SMILES = CC[C@H](C)[C@H](NC(=O)[C@H](Cc1ccccc1)NC(=O)[C@H](CC(=O)O)NC(=O)[C@H](CCCNC(=N)N)NC(=O)[C@H](C)NC(=O)[C@H](C)NC(=O)[C@H](CC(C)C)NC(=O)[C@H](CC(N)=O)NC(=O)[C@H](CC(=O)O)NC(=O)[C@H](CC(C)C)NC(=O)[C@@H](NC(=O)[C@@H](NC(=O)[C@H](CC(N)=O)NC(=O)[C@H](CCSC)NC(=O)[C@H](CCC(=O)O)NC(=O)[C@H](CC(=O)O)NC(=O)[C@H](CO)NC(=O)[C@H](Cc1ccccc1)NC(=O)[C@H](CO)NC(=O)[C@H]1CCC[C@@H]1NC(=O)[C@H](CC(=O)O)NC(=O)[C@H](C)NC(=O)[C@@H](N)Cc1c[nH]cn1)[C@@H](C)O)[C@@H](C)CC)C(=O)N[C@@H](CC(N)=O)C(=O)N[C@@H](Cc1c[nH]c2ccccc12)C(=O)N[C@@H](CC(C)C)C(=O)N[C@H](C(=O)N[C@@H](CCC(N)=O)C(=O)N[C@H](C(=O)N[C@@H](CCCCN)C(=O)N[C@H](C(=O)N[C@H](C(=O)N[C@@H](CC(=O)O)C(N)=O)[C@@H](C)O)[C@@H](C)CC)[C@@H](C)O)[C@@H](C)CC; target = GLP2R (Homo sapiens, UniProt O95838); test = agonist; EC50 = 1.8 nM
